# Experimental data collected from several papers.
# Protocols differ between the studies behind these lines. “And” joins repeats or separate records; there may be more than shown. ± gives the spread as reported.
# Chain of UniProt P10635 (whole entry, looked up): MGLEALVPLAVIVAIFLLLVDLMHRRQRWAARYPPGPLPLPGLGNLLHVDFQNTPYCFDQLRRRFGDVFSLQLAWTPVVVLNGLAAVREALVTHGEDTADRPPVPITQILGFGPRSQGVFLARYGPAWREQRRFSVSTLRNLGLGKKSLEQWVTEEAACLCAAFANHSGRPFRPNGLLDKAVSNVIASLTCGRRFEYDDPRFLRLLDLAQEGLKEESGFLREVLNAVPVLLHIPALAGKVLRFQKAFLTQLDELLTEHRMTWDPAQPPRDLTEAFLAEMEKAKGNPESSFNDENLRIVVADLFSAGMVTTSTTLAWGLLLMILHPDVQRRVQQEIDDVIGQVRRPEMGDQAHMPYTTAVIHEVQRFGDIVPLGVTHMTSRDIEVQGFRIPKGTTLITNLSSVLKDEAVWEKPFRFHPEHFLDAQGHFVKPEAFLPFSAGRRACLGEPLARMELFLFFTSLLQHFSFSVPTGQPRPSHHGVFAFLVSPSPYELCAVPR
Structure (SMILES),tested on,assay,test system,conditions,how to read,endpoint,value
CNc1cc(N)c(C(N)=O)cn1,,,"Han Wistar rats, male, plasma","oral, 30 mg/kg, 0.25 h",,concentration at time,31.4 µM
COC1CN([C@H]2CC[C@H]([C@@]3(C)Oc4c(Cl)cc(C(=O)NCc5c(SC)cc(C)[nH]c5=O)c(C)c4O3)CC2)C1,,"RNA-seq, refers to: RHPN2","human, whole blood","dose not given, 24 h",relative to: pretreatment baseline,log2 fold change,2.86
C=CC(=O)Nc1cc(Nc2nccc(-c3c[nH]c4ccccc34)n2)c(OC)cc1N(C)CCN(C)C,,storage stability,human dried blood spots,"24 h, -80 °C, low QC level",,recovery,101%
O=c1[nH]c2ccccc2c(=O)n1O,,,Caco-2,10 µM,,efflux ratio,1.4
CN1CCCNC(=O)c2cccc(c2)C(=O)NCCCN(C)CCCNc2cccc3c2C(=O)c2cccc(c2C3=O)NCCC1,,,mouse xenograft model,"dose not given, day 6",,body weight,25 g and 26 g and 27 g
CCCC[C@H](NC(C)=O)C(=O)N[C@@H](CO)C(=O)N[C@H](C(=O)N1CCC[C@H]1C(=O)N[C@]1(C)CCCCCCC=CCCC[C@@](C)(C(=O)N[C@@H](Cc2ccccc2)C(=O)N[C@@H](CCCCN)C(=O)N[C@@H](CCCNC(=N)N)C(=O)N[C@@H](CC(C)C)C(=O)N[C@@H](CCC(N)=O)C(N)=O)NC(=O)[C@H](CCCNC(=N)N)NC(=O)[C@H](CCCC)NC(=O)[C@H](CC(C)C)NC(=O)[C@H](CCCNC(=N)N)NC(=O)[C@H](CCCNC(=N)N)NC(=O)[C@H](CCCNC(=N)N)NC1=O)[C@@H](C)O,proteinase K (Tritirachium album),"proteolytic stability, LC-MS",,"25 µM, 184.5 min, pH 7.4",,remaining intact peptide,68.9%
CC(C)(O)c1ncc([S@](N)(=O)=NC(=O)Nc2c3c(cc4c2CCC4)CCC3)s1,,refers to: investigations,healthy human,"oral, 100 mg, all formulations pooled",,subjects with TEAEs,17%
C=CC(=O)N1CCCC(n2c(=O)c3ncccc3n(Cc3ccc(Oc4ccccc4)cc3)c2=O)C1 (stereo not drawn),,,"male BALB/c mouse, plasma","oral, 200 mg/kg, 6 h",,concentration,4740 ng/mL
COc1ccc([C@@H]2CC(=O)c3c(O)cc(O[C@@H]4O[C@H](CO)[C@@H](O)[C@H](O)[C@H]4O[C@@H]4O[C@@H](C)[C@H](O)[C@@H](O)[C@H]4O)cc3O2)cc1O,,,"Sprague-Dawley rat, male, obese, plasma","intravenous, 4 mg/kg",,Tmax,1.83 ± 1.89 h
N=C(N)NCCC[C@@H]1NC(=O)[C@H](CO)NC(=O)[C@@H](NC(=O)[C@H](CO)NC(=O)[C@H](CO)NC(=O)[C@H](Cc2c[nH]c3ccccc23)NC(=O)CNC(=O)[C@H](CO)NC(=O)[C@@H](N)Cc2c[nH]c3ccccc23)CSSC[C@@H](C(=O)NCC(=O)O)NC(=O)[C@H](CO)NC1=O,,,"patients, plasma","intravenous, 10 mg/kg, thrice weekly, geometric mean",,AUC(0-inf),824 ng·h/mL
Cc1noc(C)c1Cn1cc(N2C(=O)CN(Cc3cccc(O[C@@H]4O[C@H](C(=O)O)[C@@H](O)[C@H](O)[C@H]4O)c3)C2=O)cn1,,,"Sprague-Dawley rat, male","oral, 100 mg/kg of parent drug, 24 h",,plasma concentration,36 ng/mL
CNC(=O)C1CCCN(C(=O)C2CC3CCC2N3C(=O)[C@@H]2C[C@@H](O)CN2C(=O)NCc2cccc(Cl)c2F)C1 (mixture of isomers),"Cytochrome P450 2D6 (CYP2D6, Homo sapiens, UniProt P10635)","enzyme activity, inhibitor, time-dependent inhibition",,"5.56 µM, preincubated with NADPH",,dextrorphan formation,143 ng/mL
O=S(=O)(NCc1ccncc1)c1ccc(C2CCCCC2)cc1,,,CK mouse,0.3 mg/kg,relative to: vehicle,body weight change,11 ± 7 g
CC(=O)c1cccc(CN2CCCC(CCC(=O)NCc3ccccc3F)C2)c1 (stereo not drawn),Trypanosoma cruzi,"reporter mRNA translation, inhibitor, refers to: Renilla luciferase mRNA",cell-free extract,"concentration not given, test 1",relative to: positive over negative control,translation activity,118% and 147%
CCCC[C@@H]1NC(=O)[C@@H](CC(C)C)NC(=O)[C@H](CCCCNC(=O)CN2CCN(CC(=O)O)CCN(CC(=O)O)CC2)NC(=O)NNC(=O)[C@H](Cc2c[nH]cn2)NC(=O)[C@@H](Cc2c[nH]c3ccccc23)NC1=O [copper-64 labelled],,,"Balb/c mice, muscle","intravenous, dose not given",,tissue uptake,0.22 ± 0.14 %ID/g
CCN(CC)CC#CCNc1ccnc2cc(Cl)ccc12,Salmonella typhimurium,mini-Ames test,TA1535,"1000.0 µg/well, with rat liver S9",,revertants per well,1
CC[C@H](C)[C@@H](C(=O)N[C@@H](CC(C)C)C(=O)N[C@@H](CO)C(=O)N[C@@H](CO)C(=O)N[C@H](C(=O)N[C@@H](CCC(=O)O)C(=O)N[C@H](C(=O)NCC(=O)N[C@@H](CO)C(=O)N[C@@H](CC(N)=O)C(=O)N[C@H](C(=O)N1C[C@H](O)C[C@H]1C(N)=O)[C@@H](C)O)C(C)C)[C@@H](C)O)N(C)C(=O)[C@H](C)NC(=O)CN(C)C(=O)[C@H](Cc1ccccc1)NC(=O)[C@H](CO)NC(=O)[C@H](CO)NC(=O)[C@H](CCCNC(=N)N)NC(=O)[C@H](CCC(N)=O)NC(=O)[C@H](CC(C)C)NC(=O)[C@H](Cc1ccccc1)NC(=O)[C@H](CCCC(=O)O)NC(=O)[C@H](C)NC(=O)[C@H](CC(C)C)NC(=O)[C@H](CCCNC(=N)N)NC(=O)[C@H](CCC(=O)O)NC(=O)[C@@H](NC(=O)[C@H](C)NC(=O)[C@@H]1CCCCNC(=O)C[C@H](NC(=O)[C@H](CCCNC(=N)N)NC(=O)CC[C@H](NC(=O)CCCCCCCCCCCCCCCCCCC(=O)O)C(=O)O)C(=O)NCC(=O)N[C@@H]([C@@H](C)O)C(=O)N[C@@H](C)C(=O)N[C@@H]([C@@H](C)O)C(=O)N1)[C@@H](C)O,,SEC,"formulation, phosphate buffer, propylene glycol, mannitol, NaCl","1 weeks, pH 6.1, 40 °C",,covalent oligomers,≤ 0.2%
CC(C)n1ncc2c(C(=O)NCC(C)(C)N)cc(C3CC3)nc21,,metabolic stability,"mouse, liver microsomes",,,microsomal CLint,< 9.6 µL/min/mg
COc1ccnc(C(=O)N[C@H]2COC(=O)[C@H](Cc3ccccc3)[C@@H](OC(=O)C(C)C)[C@H](C)OC2=O)c1O,,soil adsorption,clay loam soil,"pH 7.2, organic carbon 4.4 %",,KFoc,1810 mL/g
CN(C)c1ccc(CNCCC2CCOC(C)(C)C2)cc1.Cl (stereo not drawn),Trypanosoma cruzi,"reporter mRNA translation, inhibitor, refers to: Renilla luciferase mRNA",cell-free extract,"concentration not given, test 1",relative to: positive over negative control,translation activity,122% and 109%
Cc1cc(C)nc(NC(=S)N2CCN(Cc3ccc(C(F)(F)F)cc3)CC2)c1,,,plasma,"intraperitoneal, 30 mg/kg",,AUC(0-inf),14700 ng·h/mL
C=CC(=O)Nc1cc(Nc2nccc(-c3cn(C)c4ccccc34)n2)c(OC)cc1N(C)CCNC,,storage stability,human plasma,"2 h, on ice, LLOQ level",,recovery,102%
CC(C)OCCOCc1ccc(OCC(O)CN(N=O)C(C)C)cc1 (stereo not drawn),Escherichia coli,Ames test,WP2 uvrA,"1580 µg/plate, 30 % hamster S9",relative to: solvent control,revertant fold increase,1.1 fold
N#C/N=C(\N)Nc1cccc(C(=O)NCC(=O)NC[C@H](NC(=O)c2c(Cl)cc(-c3ccccc3)cc2Cl)C(=O)O)c1,,,Caco-2,,,efflux ratio,62
Cc1nc(N)nc2c1C(=O)N[C@@H](c1ccc(F)cc1-c1cccc(O[11CH3])n1)C2,,ex vivo biodistribution,"mouse, U87 subcutaneous xenograft, carcass","dose not given, 60 min, vehicle pretreatment baseline",,radioactivity uptake,44.2 ± 3.8 %ID
O=S1(=O)CC2CCCCC2CS1 (stereo not drawn),,"phase solubility, NMR",water,"25 °C, added: hydroxypropyl-β-cyclodextrin 111 mM",,solubility,13.6 mM
COCC1CN(C2CCN(c3cc(OC)c(Nc4ncc(Br)c(Nc5ccc6c(c5P(C)(C)=O)OCCO6)n4)cc3C)CC2)C1,,phase 1 trial,"human, advanced EGFR-mutant NSCLC","oral, dose not given",,patients with any treatment-related AE,81.5%
CN(C)S(=O)(=O)c1ccc(S(=O)(=O)N2CCC(n3c(=O)[nH]c4ccccc43)CC2)cc1,,,mouse,"dose not given, day 2",relative to: day 0,relative body weight,97% and 91% and 99% and 94% and 95%
Cc1noc(C)c1Cn1cc(N2C(=O)CN(Cc3cccc(OS(=O)(=O)O)c3)C2=O)cn1,,,"Sprague-Dawley rat, male","oral, 30 mg/kg of parent drug, 8 h",,plasma concentration,1690 ng/mL
Nc1ncc(-c2cc(-c3cnn(CC(F)(F)F)c3)ncc2F)nc1C(=O)NC1CNCC(F)C1 (stereo not drawn),CHEK1,KINOMEscan,,1 µM,relative to: control,remaining binding,50%
COc1cccc(OC)c1-c1cc(C(=O)NC2(C(=O)O)C3CC4CC(C3)CC2C4)nn1-c1ccc(C(=O)N(C)CCCN(C)CCCN(C)C(=O)[C@H](CCCCNC(=O)[C@H](CC(C)C)NC(=O)C2OC2C(=O)O)NC(=O)CN2CCN(CC(=O)[O-])CCN(CC(=O)[O-])CCN(CC(=O)[O-])CC2)cc1C(C)C.[177Lu+3] (mixture of isomers),,,"mouse, HT-29 xenograft, lung",24 h post injection,,tissue uptake,0.5 %ID/g
O=C(Nc1cnccc1-c1ccc([18F])nc1)c1ccnc(NC(=O)C2CC2)c1,,,"FVB/NJ mouse, both sexes, brain","intravenous, 50 min, added: tariquidar 15 mg/kg iv",,SUV,0.142
CCCCN1C(=O)c2cccc3c(NCCCCCCN4CCOCC4)ccc(c23)C1=O,,,ethylene glycol,,,fluorescence quantum yield,0.73
